Published values collected from several papers.
Each numbered part is a random draw from the data of one study; scales do not carry over between parts.

Sample 1 — method: RNA Bind-n-Seq; form: RNA; matrix: in vitro; concentration: 200 nM; notes: whole 134-nt RNA, ends assumed; together with: 150 mM KCl; relative to: input library; reading: higher = stronger binding
Target: Fragile X messenger ribonucleoprotein 1, C-terminal low-complexity region (Fmr1, Mus musculus, UniProt P35922)
All sequences stand within: GGGAGUUCUACAGUCCGACGAUC … UGGAAUUCUCGGGUGUCAAGG
`UAACUUUAGAGGAGGAUCUGAUGGAUAUGGCAGUGGACGUGGAUUUGGGGAUGGCUAUAAUGGGUAUGGAGGAGGGCCUGGAGGUGGCAA` gave a log2 enrichment of 0.516.
`UGGGAGGUGGAUUUUGUUUAGUUUUUUAGCUCAUUUCCAGGGGUGGGAAUUUUUUUUUAAUAUGUGUCAUGAAUAAAGUUGUUUUUGAAA` has a log2 enrichment of 0.114.
For `CCUGUGCUACACAUCGUAUGUACCGAAUCGGGGUUUUUUGGGGUUUUUUGGGGUUUUUUGGAAAGUAUUAUGUUACGCCGUUCGGAUCUG`, the log2 enrichment was -0.354.
With `CUGUGCUACACAUCGUAUGUACCGAAUCGGGAAAAAAAGGGUUUUUUUGGGUUUUUUUGGGAAAGUAUUAUGUUACGCCGUUCGGAUCUG` the log2 enrichment was -1.41.
With `GUCCUGUGCUACACAUCGUAUGUACCGAAUCAAACCCCCAAAUUUUUAAACCCCCAAAAAAGUAUUAUGUUACGCCGUUCGGAUCUGCAC` the log2 enrichment was -0.244.
`AGUCCUGUGCUACACAUCGUAUGUACCGAAUCAAAUUUAAACCCCCAAACCCCCAAAAAAGUAUUAUGUUACGCCGUUCGGAUCUGCACU` gave a log2 enrichment of -0.328.
`CAAGUCCUGUGCUACACAUCGUAUGUACCGAAUCGGGAAAGGGAAAAAGGGUGGGAAAGUAUUAUGUUACGCCGUUCGGAUCUGCACUUC` has a log2 enrichment of 0.859.
With `CCUCAAGUCCUGUGCUACACAUCGUAUGUACCGAAUCGGCGGGGCGGGCGGGAAAGUAUUAUGUUACGCCGUUCGGAUCUGCACUUCCAG` the log2 enrichment was 1.24.

Sample 2 — observed: enzyme activity; action: inhibitor; concentration: 20 µM; notes: hit confirmation, with DTT
Target: Replicase polyprotein 1ab, main protease (rep, Severe acute respiratory syndrome coronavirus 2, UniProt P0DTD1)
For `COc1cc(-c2ccc(/N=N/c3ccc4c(S(=O)(=O)O)cc(S(=O)(=O)O)c(N)c4c3O)c(OC)c2)ccc1/N=N/c1ccc2c(S(=O)(=O)O)cc(S(=O)(=O)O)c(N)c2c1O`, the inhibition was 100%.
The inhibition of `CCCCCCNC(=O)n1cc(F)c(=O)[nH]c1=O` is reported as 99.2%.
`O=C(O)C1=CC(=C(c2ccc(O)c(C(=O)O)c2)c2ccc(O)c(C(=O)O)c2)C=CC1=O` gave an inhibition of 88.7%.
`CC(C)N(CCC(=O)c1ccc2ccccc2c1)Cc1ccccc1` has an inhibition of 6%.

Sample 3 — method: RNA Bind-n-Seq; form: RNA; matrix: in vitro; concentration: 365 nM; relative to: no-protein control; reading: higher = stronger binding
Target: RNA binding protein fox-1 homolog 2, RRM domain, GST-SBP tag (RBFOX2, Homo sapiens, UniProt O43251-10, residues 100-194)
Notes: natural RNA segment, single round, ends assumed
All sequences stand within: GGGAGUUCUACAGUCCGACGAUC … UGGAAUUCUCGGGUGCCAA
`AUUCUCACUCCAUGACCUGAUUUUUUUUGUUGUUGUUUUUUUGUUUUGUAAUUUUCAAUUCUAUUGUAAAAGAAACUUAAGUCUCCAACUUGCUGUUUCCAAAAAGAAGG` — result for “RBNS enrichment (R)”: 0.675.
Under “RBNS enrichment (R)”, `CUACUUUGAGCAGGGUCUGAAUUUUUUCAUUUAUUUUCUUUUUGCCAGCAGACAGACUUGGGUCUAUAAAGACAAGCAAGUACACUGACAGAAAUUACCAUUUAGUUUCU` is recorded as 0.783.
`GUUUGAAACCAACCUUGGCUGCAUACAGAUGAUGUAUAUAUAGGCCAGCAUGGGUUACACUGUCUGUCUUAGCAAACAAAAUUUCAACUGUUUGAGAAAGAUUUUGUUCU`: “RBNS enrichment (R)” 1.28.
`UCUCUGAUUUUGCCUCCUCACUCUGUGUCUGGCUUUGCUCCUGGGUCUUGGCCCUGGGCCAUAUGAGGGGCCAGGAAAUGAACGACAAGGAGGAUAAGAGUGUUCUUUCU` — result for “RBNS enrichment (R)”: 1.13.
`ACUGCUGUAAUGCUAGUAUUUCAAAGUCUGAAGCAGGAGGACUCCCAUGAGGUUGAGGUUACCCUGGCUUAUGGAGCGACAGCCUGUCUCAGAGAAACAAGAGCACAAGU`: “RBNS enrichment (R)” 0.471.
For `GGAGUAGGACAGAACUGGAAAGCUGAGUGGGCCUCAGUGUGGAGAGGUACUAGUGGACAGGACUUUCAUGGCUUGGGUCCAUGCUCCUCCCACACCCAAGAGGAGUGGUG`, “RBNS enrichment (R)” read 1.09.
`GCACCCUUAUCCCAGUUAUAAGACAGUCAAAAUGACUAUUUCCUAAAUAUUGUGAGUGUAUGAAAUGUGAAAUUAAAGCAAAAACUGGAGACUUUUAAUGUAUUUCUUUA`: “RBNS enrichment (R)” 1.07.
`AGAGAGUGAGAUGCCAUGCUGACAAUAUUAAGAUCUAUUUGAAUAUUUAGAAAUGUCUUACUGUAUAUAUGUUUAUGUUUAUUUGGUCCUUAGAGAUUAAAAGCGGUCAU` — result for “RBNS enrichment (R)”: 0.531.

Sample 4 — action: inhibitor; concentration: 20 µM
Target: Replicase polyprotein 1ab, nsp13 helicase (rep, Severe acute respiratory syndrome coronavirus 2, UniProt P0DTD1)
`Cc1ccc(C23CNCC2C3)cc1` (stereo not drawn) gave an inhibition of 8.15%.
For `NCCCC(=O)O`, the inhibition was -3.32%.
The inhibition of `CC(C)NCC(O)c1ccc([N+](=O)[O-])cc1` (stereo not drawn) is reported as -1.72%.
With `COc1ccc(CNCc2cccc3ccccc23)cc1` the inhibition was 4.93%.
`CC(C)(C)NC(=O)[C@H]1CC[C@H]2[C@@H]3CC[C@H]4NC(=O)C=C[C@]4(C)[C@H]3CC[C@]12C` has an inhibition of 10.9%.
`C/C(=C\c1csc(C)n1)[C@@H]1C[C@@H]2O[C@]2(C)CCC[C@H](C)[C@H](O)[C@@H](C)C(=O)C(C)(C)[C@@H](O)CC(=O)N1` gave an inhibition of 3.01%.
`CC(C)(COP(=O)(O)OP(=O)(O)OC[C@H]1O[C@@H](n2cnc3c(N)ncnc32)[C@H](O)[C@@H]1OP(=O)(O)O)[C@@H](O)C(=O)NCCC(=O)NCCS` has an inhibition of -2.27%.
With `Cc1cc(NC(=O)Nc2ccc(F)c(F)c2)n(-c2ccccc2)n1` the inhibition was 1.66%.
With `CCCCCCCCCCC/C(=N\O)c1cc(C)ccc1O` the inhibition was 0.73%.
`C1=Cc2cccc(OCC3CNCCO3)c2C1` (stereo not drawn) has an inhibition of 1.25%.
`CC1Nc2ccc(Cl)cc2S(=O)(=O)N1` (stereo not drawn) has an inhibition of 4.85%.
`COc1ccc(S(=O)(=O)N(C(C)=O)c2ccccc2/C=C/c2cc[n+]([O-])cc2)cc1` gave an inhibition of -2.74%.
`N=C(N)c1ccc(OCCCCCOc2ccc(C(=N)N)cc2)cc1` has an inhibition of -2.02%.
With `NC1=NCCN1CC(=O)O` the inhibition was 8%.
The inhibition of `CCOc1ccc(-c2ccc(Cn3c(CC(C)(C)C(=O)O)c(SC(C)(C)C)c4cc(OCc5ccc(C)cn5)ccc43)cc2)cn1` is reported as 2.5%.
The inhibition of `CC(=O)[C@]1(N)Cc2c(O)c3c(c(O)c2[C@@H](O[C@H]2C[C@H](O)[C@H](O)CO2)C1)C(=O)c1ccccc1C3=O` is reported as 56.9%.
The inhibition of `O=C(NC1CCNCC1)[C@@H]1CC[C@@H]2CN1C(=O)N2OS(=O)(=O)O` is reported as -4.57%.
For `CN1CCN(CCCN2c3ccccc3Sc3ccc(C(F)(F)F)cc32)CC1`, the inhibition was 7.54%.
`OC1(c2ccc(Cl)cc2)c2ccccc2C2=NCCN21` (stereo not drawn) has an inhibition of 5.42%.
The inhibition of `CCCCc1nc(Cl)c(C(=O)O)n1Cc1ccc(-c2ccccc2-c2nn[nH]n2)cc1` is reported as 0.03%.
For `COc1ccc(CCc2nc3cc(-c4c(C)noc4C)ccc3n2C[C@H](C)N2CCOCC2)cc1Cl`, the inhibition was 8.97%.
For `Cc1cc(C(=O)O)sc1C(N)C(=O)O` (stereo not drawn), the inhibition was 8.52%.
For `CNC(=O)Oc1ccccc1OC(C)C`, the inhibition was -2.35%.
`COc1cnc(NS(=O)(=O)c2ccc(N)cc2)nc1` gave an inhibition of -0.84%.
The inhibition of `CCCCc1nc(C)c(CC(=S)N(C)C)c(=O)n1Cc1ccc(-c2ccccc2-c2nnn[nH]2)cc1` is reported as 9.96%.

Sample 5 — cell line: HEK-293T/ACE2; concentration: 10 µM; time: 16 h; relative to: vehicle
The viability of `O=C1NC(=O)C(c2ccccc2)(c2ccccc2)N1` is reported as 100%.
`NS(=O)(=O)c1cc2c(cc1Cl)N=C(CSCc1ccccc1)NS2(=O)=O` has a viability of 101%.
`CCN(CC)CCOC(=O)c1ccc(N)cc1` gave a viability of 97.2%.
`Cc1nc(Nc2ncc(C(=O)Nc3c(C)cccc3Cl)s2)cc(N2CCN(CCO)CC2)n1` gave a viability of 105%.

Sample 6 — method: protein-binding microarray; form: double-stranded DNA, one strand shown; matrix: in vitro; concentration: not given; reading: higher = stronger binding
Target: Transcriptional repressor CTCF (CTCF, Homo sapiens, UniProt P49711, residues 1-727, full length assumed)
Sequence of UniProt P49711 (whole entry, looked up): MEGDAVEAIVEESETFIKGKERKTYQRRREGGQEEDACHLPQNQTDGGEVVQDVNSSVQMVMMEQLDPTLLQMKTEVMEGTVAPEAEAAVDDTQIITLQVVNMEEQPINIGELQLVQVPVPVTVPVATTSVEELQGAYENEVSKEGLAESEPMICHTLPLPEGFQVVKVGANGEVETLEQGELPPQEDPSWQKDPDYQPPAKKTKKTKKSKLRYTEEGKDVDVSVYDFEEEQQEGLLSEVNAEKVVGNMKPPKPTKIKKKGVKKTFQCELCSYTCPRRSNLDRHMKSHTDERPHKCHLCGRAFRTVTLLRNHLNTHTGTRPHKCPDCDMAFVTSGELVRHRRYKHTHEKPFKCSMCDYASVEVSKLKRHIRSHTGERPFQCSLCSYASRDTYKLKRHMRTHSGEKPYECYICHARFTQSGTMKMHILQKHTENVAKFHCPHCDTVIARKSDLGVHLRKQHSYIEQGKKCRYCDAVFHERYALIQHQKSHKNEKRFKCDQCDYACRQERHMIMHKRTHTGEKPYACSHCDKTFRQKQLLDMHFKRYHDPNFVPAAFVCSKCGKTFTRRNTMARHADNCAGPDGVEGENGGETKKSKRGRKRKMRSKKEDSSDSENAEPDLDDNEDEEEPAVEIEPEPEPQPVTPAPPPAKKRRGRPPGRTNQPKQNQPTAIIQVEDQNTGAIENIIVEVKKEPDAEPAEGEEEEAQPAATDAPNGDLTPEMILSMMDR
Notes: k-mer, scored over probes, only values ≥0.25
`CATAATAG` has an E-score of 0.292.
The E-score of `TACTTCTA` is reported as 0.258.
`AAAATGAG` has an E-score of 0.251.
With `ATCAATTA` the E-score was 0.277.
For `CTAGCGGC`, the E-score was 0.298.
